Experimental data gathered from unrelated publications.
Each numbered part is a random draw from the data of one study; scales do not carry over between parts. Positions count from the first letter of the parent shown.

Sample 1
Target: Interferon regulatory factor 3, full length, phosphomimetic (IRF3, Homo sapiens, UniProt Q14653, residues 1-427, S386D/S396D/S398D/S402D/T404D/S405D)
Technique: protein-binding microarray
Molecule type: double-stranded DNA, one strand shown
Medium: in vitro
Concentration: 2540 nM top
Setting: 60-bp whole probe
Together with: salmon DNA 0.4 mg/ml
Relative to: random background probes
Reading: higher = stronger binding
Shared flanks, not repeated: GCCTAGCAC … GTCTTGATTCGCTTGACGCTGCTG
Construct (chain): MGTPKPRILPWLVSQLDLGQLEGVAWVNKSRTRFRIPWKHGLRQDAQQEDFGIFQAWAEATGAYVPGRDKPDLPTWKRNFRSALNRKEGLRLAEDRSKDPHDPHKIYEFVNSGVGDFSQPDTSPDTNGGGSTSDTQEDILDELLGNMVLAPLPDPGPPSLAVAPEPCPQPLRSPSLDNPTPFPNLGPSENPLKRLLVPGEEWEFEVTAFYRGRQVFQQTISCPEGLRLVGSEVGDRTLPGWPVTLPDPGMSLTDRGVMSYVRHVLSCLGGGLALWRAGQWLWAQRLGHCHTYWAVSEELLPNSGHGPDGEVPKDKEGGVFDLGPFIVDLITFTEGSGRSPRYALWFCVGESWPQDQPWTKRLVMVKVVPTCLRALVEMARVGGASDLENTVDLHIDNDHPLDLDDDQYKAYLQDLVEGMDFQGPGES
| Oligonucleotide | fitted relative affinity [z-score] |
| --- | --- |
| GCCGGTTTCGGGTATCGGGACGTGCTA | 5.1 |
| TTCTTTTTTTCTTTTATTAGGTGCTAG | 3.31 |
| TTAGGACTGGGCCTCGGTTAGTGCTAG | -1.09 |
| TTAGGTCTCCTGCTGCTTTAGTGCTAG | -0.262 |
| TTAGGTATCAGTCTCGATTAGTGCTAG | 3.58 |
| CTAGGTTTCCTTTCCCTTTAGTGCTAG | 10.3 |
| TCAAGTCTCAACCCCCAAACTGTGCTA | -0.234 |
| TTATGTCTGGGTATTTTTTCGTGCTAG | -0.177 |
| TCATTTTTCCCTATTATACTGTGCTAG | 3.17 |
| TTTCGTTACTTCCTCAAACAGTGCTAG | 5.68 |
| TTAGAACTGCGTATCGATTAGTGCTAG | 0.133 |
| GACTAACTGAGTATCGAGACGTGCTAG | 0.0596 |
| GACGATATCGGGTATCGAGTCGTGCTA | 0.489 |
| GACGGTATCCTACAGCTGACGTGCTAG | 1.1 |
| TTAAGTTCCGGTTTCGGTTAGTGCTAG | 8.07 |
| GACGATCTCAGTATAGAGACGTGCTAG | 0.574 |
| GACGATATGGGGACTGGAGACGTGCTA | -0.645 |
| GACGATATCAGTTACGAGACGTGCTAG | 0.797 |
| CTTGCTTTATGTGTAGGTCTGTGCTAG | 0.0707 |

Sample 2
Target: Centromere-binding protein 1, full length, N-terminal tag (CBF1, Saccharomyces cerevisiae, UniProt P17106, residues 1-351)
UniProt P17106, sequence (whole entry, looked up): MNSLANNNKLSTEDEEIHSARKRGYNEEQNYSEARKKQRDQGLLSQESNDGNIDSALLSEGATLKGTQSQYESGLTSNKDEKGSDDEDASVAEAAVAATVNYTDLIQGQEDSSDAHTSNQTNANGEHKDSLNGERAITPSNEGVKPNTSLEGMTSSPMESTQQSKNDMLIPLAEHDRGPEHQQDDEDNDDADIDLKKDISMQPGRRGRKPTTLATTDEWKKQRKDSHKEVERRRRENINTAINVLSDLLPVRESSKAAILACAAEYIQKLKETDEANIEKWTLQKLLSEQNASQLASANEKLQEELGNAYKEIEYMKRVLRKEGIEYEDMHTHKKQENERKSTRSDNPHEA
Technique: protein-binding microarray
Molecule type: double-stranded DNA, one strand shown
Medium: in vitro
Concentration: 0.8 µM
Setting: whole 60-bp probe, no competitor
Reading: higher = stronger binding
Shared flanks, not repeated: … GTCTTGATTCGCTTGACGCTGCTG
| Oligonucleotide | fluorescence intensity [a.u.] |
| --- | --- |
| GAACAGGTATTACGTCAGGTGAAAAAAGCGGCCTAG | 912 |
| CTAGCCGAAAGAAGTCACGGCGATGAACAAAATTTC | 689 |
| CTATGGCGCTGCTACGCCGTGACAAGTCATTTCTTC | 562 |
| CTATTTGCGTTATGAAACGTGATGCTTCGATATTTC | 917 |
| CTACACTGGAACGGTGATGTAATATGTAGATAGTTC | 567 |
| GAATAATATATTGGTAGTGTGACTACTAGTTGTTAG | 910 |
| GAAGTACACTCTACAGCCGTGACTGAGAAAAAGTAG | 715 |
| CCTAACTACTATATAACCGTGATATAGCTTCGTACA | 544 |
| CTACAAAAAGAAAAGAACACCACGACTAATAAATTC | 564 |
| GAATTGTCAGTAAGTCACGTAGACCTGTATCGGTAG | 3030 |
| CTAATGCTGAAGTACGTGGTGACGGATATTGGGTTC | 542 |
| GAAGAAATTAATGATCATGATGAAGTTAATTTTTAG | 565 |
| CTATAGGTTTCTGTACACGTTTTTGAATTTTTTTTC | 681 |
| GAATTATCTTTTTAACATCAGAATTTCAACAAATAG | 583 |
| CTATTTAACTAGAGAGTGGTGATGATTTATTGATTC | 535 |
| GAAGGAATATACGATGGTGTGAATACTGGTACGTAG | 540 |
| GAACAAGCCTCGCTTCACGTGTAACATACACAGTAG | 2230 |
| GAAAATCACGTGTGCCTGACCACCTTCTCCGAGTAG | 10800 |
| CCTAACTACTATAATGAACAGGTATAGCTTCGTACA | 540 |

Sample 3
Target: TAR DNA-binding protein 43, full length, His tag (TARDBP, Homo sapiens, UniProt Q13148, residues 1-414)
Technique: RNA Bind-n-Seq
Molecule type: RNA
Medium: in vitro
Concentration: 20 nM
Setting: 6-mer, flanks averaged, single round
Together with: 150 mM LiCl
Relative to: input library
Reading: higher = stronger binding
| Oligonucleotide | 6-mer enrichment (R) |
| --- | --- |
| CUUGGA | 0.933 |
| UAUGAU | 1 |
| AGUACG | 0.916 |
| GACAGG | 0.991 |
| ACCACC | 0.961 |
| UCGAUU | 0.863 |
| GUAUGG | 1.52 |
| AGAUCC | 0.843 |
| GACUAG | 0.932 |
| GGUAGU | 1.14 |
| CUCUCA | 0.877 |
| CCUUGU | 1.16 |
| GCGGGG | 1.35 |
| CGUAGG | 0.94 |
| ACACCA | 0.989 |
| GCUCCG | 0.905 |
| CAAGAC | 0.776 |
| GAAUAA | 0.975 |
| CCGGUU | 0.924 |
| ACCGCG | 0.888 |
| GAAGCG | 1.02 |
| CAUUCG | 0.812 |

Sample 4
Target: Ras GTPase-activating protein-binding protein 1, full length (G3BP1, Homo sapiens, UniProt Q13283)
UniProt Q13283, sequence (whole entry, looked up): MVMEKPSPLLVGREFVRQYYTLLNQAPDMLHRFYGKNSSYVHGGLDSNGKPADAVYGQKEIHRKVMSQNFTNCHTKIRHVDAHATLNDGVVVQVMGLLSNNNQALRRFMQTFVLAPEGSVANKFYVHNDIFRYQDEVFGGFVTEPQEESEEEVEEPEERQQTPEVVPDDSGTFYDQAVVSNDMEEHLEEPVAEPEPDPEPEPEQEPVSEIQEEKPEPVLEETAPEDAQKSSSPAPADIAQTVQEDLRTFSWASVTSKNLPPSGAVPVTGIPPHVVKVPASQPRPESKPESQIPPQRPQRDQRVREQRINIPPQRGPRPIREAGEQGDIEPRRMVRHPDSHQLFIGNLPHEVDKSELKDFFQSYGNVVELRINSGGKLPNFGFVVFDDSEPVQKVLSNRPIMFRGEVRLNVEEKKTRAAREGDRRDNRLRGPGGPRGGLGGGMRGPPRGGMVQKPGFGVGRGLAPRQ
Technique: RNA Bind-n-Seq
Molecule type: RNA
Medium: in vitro
Concentration: 200 nM
Setting: whole 134-nt RNA, ends assumed
Together with: 150 mM KCl
Relative to: input library
Reading: higher = stronger binding
Shared flanks, not repeated: GGGAGUUCUACAGUCCGACGAUC … UGGAAUUCUCGGGUGUCAAGG
| Oligonucleotide | log2 enrichment |
| --- | --- |
| ACCAUGCAGGUGGGCAUCCUUGGGAAGUGGGGCAAGGGGGGGAUAGGGAGGGGGGUAACACUUUGGGAACAGGUGGUCCCAGGUCGUUUC | 1.36 |
| UAGUGAUGAAAAAUUUCUCCCUUCUAGGUUUCCCUUGGGGGCUUUGAAAUAACACCACCAGUGGUCUUAAGGUUGAAGUGUGGUUCAGGG | -0.238 |
| UGGGAGGUGGUUUUUGUUUAUUUUUUUAGCUCAUUUCCAGGGGUGGGAAUUUUUUUUUAAUAUGUGUCAUGAAUAAAGUUGUUUUUGAAA | 0.437 |
| GAAACUACCCGUGUGUAAAAAGAAGAUUGGCUUAAAAUGGCUACUGUGAUGGGAACAGUGUCUUAGGGAGAUGCAGCUUGGACUUGAGGU | 0.231 |
| AGUCCUGUGCUACACAUCGUAUGUACCGAAUCGGUUUGGAAAAAAAGGUUUUUUUGGAAAGUAUUAUGUUACGCCGUUCGGAUCUGCACU | -1.57 |
| CUGUGCUACACAUCGUAUGUACCGAAUCGGGGUUUUUUGGGGUUUUUUGGGGUUUUUUGGGAAAGUAUUAUGUUACGCCGUUCGGAUCUG | -0.384 |
| ACGCUCCAUGAAAGCUAGGAGGGAGUGAAAUAUCAGUGAUCAUCGCAAGGAAGGAGGCAGACAAGAGUAAGGCACACCUGACUCUUAGGA | -0.395 |
| GCAGGAAGUAAAAACAAAUGGAAAUGCUUCGGAUAGUGGCAGGGGUGGGGGUUGCUCAGGAAAGGGUGGGAUGGGAGUGGGUAAAGAGUU | 1.19 |

Sample 5
Target: Histone acetyltransferase KAT6A, winged helix 2, GST fusion (KAT6A, Homo sapiens, UniProt Q92794, residues 85-181)
Technique: protein binding microarray
Molecule type: double-stranded DNA, one strand shown
Medium: in vitro
Concentration: not given
Setting: 8-mer, flanks averaged, mean of 2 arrays, mostly near background
Relative to: not given
Reading: higher = stronger binding
Residues (chain): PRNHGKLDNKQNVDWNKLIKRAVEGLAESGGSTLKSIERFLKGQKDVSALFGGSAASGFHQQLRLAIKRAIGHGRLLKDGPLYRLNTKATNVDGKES
| Oligonucleotide | E-score |
| --- | --- |
| GCGGTGAC | 0.0601 |
| CGCGATCA | 0.0591 |
| ATGGAGAC | -0.0565 |
| AGGTGATC | -0.0197 |
| GGTGAAAA | 0.108 |
| TAAGGTGA | -0.0587 |
| AATGTTCT | -0.225 |
| CCAAACTC | 0.193 |
| AGACCCTA | -0.189 |
| CAGCTAAC | -0.11 |
| GTAATCGA | -0.0878 |
| CGGAAAAC | -0.0363 |
| CGAATCCC | 0.116 |
| AGTCGTAG | -0.139 |
| GCTTGACA | 0.0281 |
| CCCTCGGA | 0.216 |
| CGGCTGAG | 0.0711 |
| GGGATTAC | -0.0952 |
| GCCCATAC | 0.0315 |
| TACCCGGA | 0.181 |
| CAGCAGCC | -0.0499 |
| GGTGTGAC | -0.0554 |
| ATAGCACA | 0.072 |
| CCAGTGAA | -0.0804 |
| ATATATTG | -0.178 |

Sample 6
Target: ABI1, truncated, D143A, DHFR fusion (Arabidopsis thaliana, UniProt P49597)
Technique: DHFR PCA, dose-response
Medium: yeast
Setting: Hill fit, mean, not affinity
Together with: (+)-ABA, dose series
Reading: lower = more sensitive
Starting sequence: PYL1, truncated, DHFR fusion (Arabidopsis thaliana, UniProt Q8VZS8); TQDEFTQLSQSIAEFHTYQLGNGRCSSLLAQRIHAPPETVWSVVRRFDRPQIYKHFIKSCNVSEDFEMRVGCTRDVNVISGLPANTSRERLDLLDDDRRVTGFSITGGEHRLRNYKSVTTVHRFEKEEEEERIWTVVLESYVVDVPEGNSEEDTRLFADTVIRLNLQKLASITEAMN
| Variant | ABA EC50 [µM] |
| --- | --- |
| V43A | 58.1 |
| E139M | 14.7 |
| I172K | 27 |
| V118K | 3.51 |
| L29R | 25.4 |
| R46G | 39.1 |
| S59C | 5.27 |
| E14L | 10.3 |
| E139W | 6.25 |
| T39G | 21.6 |
| I133L | 2.49 |
| L94C | 29.9 |
| F124R | 23.9 |
| N177R | 2.15 |
| N85D | 3.25 |
| E4D | 1.87 |
| Q2N | 2.01 |
| I52T | 1.76 |
| G148R | 35.3 |
| C60I | 18 |

Sample 7
Target: CCNB3, cyclin fold, Cln2 fusion (human)
Technique: yeast growth competition, sequencing
Medium: yeast
Setting: weak parent motif
Relative to: not given
Reading: higher = stronger binding
Starting sequence: CDKN1B docking peptide (human); PSACRNLFGPVDH; partner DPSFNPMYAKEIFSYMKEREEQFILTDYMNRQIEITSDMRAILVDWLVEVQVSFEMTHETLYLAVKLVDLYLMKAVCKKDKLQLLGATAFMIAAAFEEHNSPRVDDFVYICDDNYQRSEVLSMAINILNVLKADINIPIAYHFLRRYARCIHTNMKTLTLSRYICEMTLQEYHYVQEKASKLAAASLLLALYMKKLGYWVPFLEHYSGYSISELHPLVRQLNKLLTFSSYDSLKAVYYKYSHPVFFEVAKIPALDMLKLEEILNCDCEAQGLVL
| Variant | normalised enrichment score |
| --- | --- |
| PSGCRNLFGPVDH [A3G] | 0.194 |
| PSACRNLFGLVDH [P10L] | 0.356 |
| LSACRNLFGPVDH [P1L] | 0.221 |
| PSACRNLMGPVDH [F8M] | 0.236 |
| PSACRNLFVPVDH [G9V] | 0.295 |
| PTACRNLFGPVDH [S2T] | 0.252 |
| CSACRNLFGPVDH [P1C] | 0.278 |
| PSACRNLFSPVDH [G9S] | 0.226 |
| PSACRNLFGIVDH [P10I] | 0.0767 |
| PSKCRNLFGPVDH [A3K] | -0.148 |
| PSACRNLFGCVDH [P10C] | 0.371 |
| PSACMNLFGPVDH [R5M] | 0.203 |
| PSACRNLFGGVDH [P10G] | 0.292 |
| PSACRSLFGPVDH [N6S] | 0.216 |
| VSACRNLFGPVDH [P1V] | 0.224 |
| PSYCRNLFGPVDH [A3Y] | 0.32 |
